Results pooled from the literature.
A part holds a random share of what one study measured. Substitutions count along the parent as printed.

Series 1 — technique: protein binding microarray; form: double-stranded DNA, one strand shown; matrix: in vitro; concentration: not given; relative to: not given; reading: higher = stronger binding; measurement: E-score
Target: Histone acetyltransferase KAT6A, winged helix 1, GST fusion (KAT6A, Homo sapiens, UniProt Q92794, residues 1-85)
Notes: 8-mer, flanks averaged, mean of 2 arrays, mostly near background
Target sequence (chain): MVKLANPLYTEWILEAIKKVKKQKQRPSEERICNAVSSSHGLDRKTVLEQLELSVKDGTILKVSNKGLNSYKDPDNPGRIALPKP
CAATCCAC: -0.202
CATGTTTC: 0.0871
AAGGACCT: 0.122
CGTCTTAC: 0.0374
AGGGGTTA: -0.133
ATGAGGAA: -0.305
AAAGGGAA: -0.108
AAGATACT: 0.0123
TAATAGTA: -0.0604
AGGCTCGG: -0.0362
GCGTTCGA: 0.0799
TCCGGCAA: 0.0372
CTTGGGGA: -0.222
AATTAACT: -0.152
AGACATGG: -0.163
TACCCTGA: -0.01
AACAATTG: -0.175
CTCGAAAG: -0.0548
CAGGGGGC: 0.14
ACTCGCAG: -0.0856
TAGCGCGA: 0.33
ACCGCCAC: 0.2
AATAATTC: 0.0522
GTGTCCCA: 0.034
ACATCATG: -0.0177

Series 2 — target: CCND3, cyclin fold, Cln2 fusion (human); technique: yeast growth competition, sequencing; matrix: yeast; notes: weak parent motif; relative to: not given; reading: higher = stronger binding; measurement: normalised enrichment score
Starting sequence: FOXM1 docking peptide (human); PHLARPIKVESPP; partner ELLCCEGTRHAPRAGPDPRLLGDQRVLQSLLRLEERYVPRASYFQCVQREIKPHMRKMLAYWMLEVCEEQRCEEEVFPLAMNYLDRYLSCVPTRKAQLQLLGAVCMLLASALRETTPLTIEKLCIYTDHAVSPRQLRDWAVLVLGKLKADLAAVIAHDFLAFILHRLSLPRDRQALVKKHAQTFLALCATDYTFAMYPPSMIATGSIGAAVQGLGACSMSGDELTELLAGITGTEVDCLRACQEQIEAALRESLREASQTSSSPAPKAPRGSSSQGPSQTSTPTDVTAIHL
E10A: -0.408
P13A: -0.0472
P1A: -0.388
I7A: -0.322
V9A: -0.0115
P12A: -0.772

Series 3 — technique: RNA Bind-n-Seq; form: RNA; matrix: in vitro; concentration: 365 nM; relative to: no-protein control; reading: higher = stronger binding; measurement: RBNS enrichment (R)
Target: RNA binding protein fox-1 homolog 2, RRM domain, GST-SBP tag (RBFOX2, Homo sapiens, UniProt O43251-10, residues 100-194)
Notes: natural RNA segment, single round, ends assumed
Shared flanks, not repeated: GGGAGUUCUACAGUCCGACGAUC … UGGAAUUCUCGGGUGCCAA
Residues (chain): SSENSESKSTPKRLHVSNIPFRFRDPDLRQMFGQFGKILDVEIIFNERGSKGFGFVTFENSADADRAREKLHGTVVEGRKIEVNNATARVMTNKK
UGUUUUCUGAGCCCUCCGGACCUGAGACUGAGUUUUGUCUUUUUCCUUUAGCCUUAGCAGUGGGUAUGAGGUGUGCAGGGGGAGCUGGGUGGCUUCACUCCGCCCAUUCC: 0.459
CCUAUCUCAGGGAUACUGGACUUGACGACACAGAUGAACAAUUAAAGUGGAAACCGCUUCCCUUUUCUCCUCUGUGGCAGUUACAAUUUUGACUUCAGGCCUGAGAAAAA: 0.222
CUAUUUAUAAGUGACUUUAAACCUUCUCUUGGCUGUUAAGAAAUGUGUUCUAGAUUUAGCUAUUUAUUGUUUGCGGCCUGCAUGCUGAAACAGUGCUUACGUUGUCUCCA: 1.6
GCUUCAAUGUGCAAUUCCUUUCUGCUUCCAAAGGUAUGCCUGCUUUGCUUUUGACUCUAAGCAUAACAUGACAAACCUCUAAGGAUGUAAUUAAAUUUAUUUUAAAACUU: 2.8
CCUGGCCCCUGGCCCCUGGCCCCUUGCCUGGCUGGCUUGACAGCCUGAGCACAAGAAGCAGUAAGUUGGCACCUUGCCACACUGUUGGUUGGGCCCAGGUGCUGCUCAGC: 0.277
UGGCAGGAUGUCUGGGGCCUCACCAGCAGGAGCGCGUGCAAGCCGGGCAGGCGGUCCACCUAGACCCACAGCCCCUCGGGAGCACCCCACCUCUGUGUGUGAUGUAGCUU: 0.41
GAAGGAAGUGUUUGAAAGUCACUUUGAAAGUUAGUUUUGGGCCAGCACGGUAGCUCACCCUUGUAAUCCCAGCACUUUGGGAGGCUGAGGUGGGUAGAUUACUUGAGCCC: 2.92
AUCUGUGCAGGGUCGUGGGAGCCACACUGAGAGACUUGUGUGGGCCAGACAAGCUUCAUUCUGAUGCGCUAGUCCCUUGGUUUAAUUUGUGCCUUAUGCUUUCAUUGGAC: 0.375
CUCUCAAAUCCCUCUCCAACUGCCUAAGGCCCUUUGUGUAAGGUGUCUUAAUACUGUCCUUUUUUUUUUUUUAACAGUGUUUUGUAGAUUUCAGAUGACUAUGCAGAGGC: 0.814
CUUUGAACAGCAGCCAAGGACAGCAGGGUCAUCAGGAUGUUUGGAGCCUGUCCUCUCAGGAGCUACAAAAGGAAUGCAGAAUUCUGUCUCUGUCCCUCCCACCUUGCCUU: 0.876
GCUGUAACAAAGCUAAGAACAGCACUUGACUAGUUUGGGCCCAAUCCCUGAUCUGAGUUGAUUUGUUUGACUGUCUUUGGGGCAAACCUUAGCAGCUCAGUAGAUUCUUC: 0.897
GCAGAGAUGCGUGCAUCCAGCAGCCCCUUCAAGACAUAAGAGGGCGGGGCGAGGUACUGGCUGCAGAGUCGCCUUAGUCCAGAACCUGACAGGCCUCUGGAGCCAGGCGA: 0.493

Series 4 — technique: RNA Bind-n-Seq; form: RNA; matrix: in vitro; concentration: not given; relative to: input RNA pool; reading: higher = stronger binding; measurement: bound/input enrichment
Target: RING finger protein unkempt homolog, zinc fingers 1-6, GST-SBP tag (UNK, Homo sapiens, UniProt Q9C0B0, residues 30-357)
Notes: RNA with constant flanks, human-mouse chimeric sites, ends assumed
Shared flanks, not repeated: GGGAGUUCUACAGUCCGACGAUC … CAACAGAGGAUUGAGCAUCA
Target sequence (chain): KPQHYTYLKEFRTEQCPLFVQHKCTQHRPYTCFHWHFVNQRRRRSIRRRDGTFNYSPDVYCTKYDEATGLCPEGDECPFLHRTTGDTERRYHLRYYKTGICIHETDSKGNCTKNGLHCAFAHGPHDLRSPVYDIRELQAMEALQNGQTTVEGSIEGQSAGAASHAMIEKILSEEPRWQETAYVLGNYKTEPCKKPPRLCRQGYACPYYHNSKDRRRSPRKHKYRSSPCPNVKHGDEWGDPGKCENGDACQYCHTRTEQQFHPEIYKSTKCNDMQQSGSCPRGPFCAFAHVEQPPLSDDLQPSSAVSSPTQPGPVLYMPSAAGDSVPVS
CACGUGUCUGCAGUACUUGAUGUGGACUACUCUCCCACUGGGAAGGAAUUUGUGUCUGCCAGCUUUGAUAAAUCUAUUCGAAUCUUUCCUGUGGACAAGAGCCGAAGCAGGGAAGUGUAU: 0.268 ratio
AACUUCGUGCAUCGGUUUCCCUUUGUAGCUGUUUCAAUUGGCUUCCUUGUAAAUAAAGAGAUGGAGUUUGGAAUUGUGUACAGUUGUGUGGAAGAUAAGAUGUACACCGGCAGGAAAGGG: 0.373 ratio
AGGAGGAGGUUAAAGGGUGAGAGUGGGGUGGAAGACUGUGUCAUGGCUCUGGAGACACUGUUCAGUGUCCUGCUUUCUCUGUGCAGACUUAUGGCUCCUUACACGCCUUUUCUCACUGAG: 0.0986 ratio
GGAUCUUUGGGACUGUUUUACUUAAUUGGUCAUUGAUAGCUUAACAAACAUGGAGAUGAGAUUAGAAAUCUUGACAUCAACAGGUAUUAAGCAGAAAAAACCAUGGCCACGUGUCUCCUG: 0.204 ratio
ACCUCCCCCUCCCGCCUCACCCCACCCCCGCUUUUUGGAAAGUUUUUGGCGUUUCUUUUCCUUCCCCAUACAAAGUGGUUUUUACCACCCCCGCAAGGGUCUAUCGAUUCACCCUUCGGA: 0.962 ratio
CCUGCUCAGAUCACCAUGAAAGUAAUCCAAGGCCUAUAUAGUGGGGUCACCACAGUGGAACUAGAUACCCUGGCUGCUGAGACAGCCGCAACCUUGACCACGAAGCACCCUGACUAUGCC: 0.217 ratio
CUCGGCACCGGCACGCUUUACAUCGCGGAGAGCCGCCUGUCUUGGUUAGAUGGCUCUGGAUUAGGAUUCUCACUGGAAUACCCCACCAUUAGUUUACAUGCGGUGUCCAGGGAUCCAAAC: 0.433 ratio
GUUGCCAGCUUCCGGUUCCGUUGGGCUCGGUUCUCUCCUGAGCUACGUGUCUCUACGCUCUCAAUCCCGGUUGGGUAAAACAUGGAUGAUCAGGUAAAGUUUGUGGAGCCCAGCCGGCAG: 0.121 ratio
CCCCAAUACCAUUUGCAAGAGUUGGAAUGCACUCUCUUUUUUAAAAAACAUGUAUACAUUUUAGGGCUGUAGAUUUAUUUUCCUGGUUUUGUUUUUCAUUGCUGACUUUGAGCACAAGAA: 1.78 ratio
CAGCUGCAGACAGAAAAGGAUGAGAAGGAGCUGUAUAAGGUACAUUUGAAGAAUACAGAAAUAGAAAAUACGAAGCUUAUGUCAGAGAUACAGACUUUAAAAAAUUUAGAUGGAAACAAA: 2.88 ratio
GCGGCAGAAUCAUGGAGGACAUAAUGCAGCUCCCCAAAGCGCGCGUCAACGCCAGCAUGCUAGCUCAGUAUAUCGACCGGCCCGUGUGCUUCGUGGGGAGGCUGGAAAAGAUUCAUCCCA: 0.112 ratio

Series 5 — technique: universal PBM; form: double-stranded DNA, one strand shown; matrix: in vitro; concentration: not given; reading: higher = stronger binding; measurement: E-score
Target: Sal-like protein 4, full length isoform B (SALL4, Homo sapiens, UniProt Q9UJQ4-2, residues 1-616)
Notes: 8-mer, flanks averaged, mean of replicates
Target sequence (chain): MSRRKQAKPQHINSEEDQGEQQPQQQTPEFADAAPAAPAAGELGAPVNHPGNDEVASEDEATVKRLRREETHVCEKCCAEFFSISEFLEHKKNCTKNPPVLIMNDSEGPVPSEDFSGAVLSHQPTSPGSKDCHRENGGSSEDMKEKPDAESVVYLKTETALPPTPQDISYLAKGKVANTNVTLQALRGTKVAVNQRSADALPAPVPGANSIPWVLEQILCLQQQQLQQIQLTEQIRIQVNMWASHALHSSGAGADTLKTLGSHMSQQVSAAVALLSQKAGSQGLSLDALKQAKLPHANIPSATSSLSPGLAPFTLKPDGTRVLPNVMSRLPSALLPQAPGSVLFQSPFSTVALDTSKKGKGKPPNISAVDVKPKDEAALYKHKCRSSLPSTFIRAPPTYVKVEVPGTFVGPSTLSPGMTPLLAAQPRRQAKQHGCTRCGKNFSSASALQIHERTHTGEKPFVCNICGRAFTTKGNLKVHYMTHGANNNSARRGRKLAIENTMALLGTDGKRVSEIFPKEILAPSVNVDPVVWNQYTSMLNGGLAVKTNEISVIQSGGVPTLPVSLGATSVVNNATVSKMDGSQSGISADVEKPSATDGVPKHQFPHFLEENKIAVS
GTATCCAC: 0.0112
ACGATACG: 0.111
AGATTGTG: 0.0249
AGATCGTA: -0.00513
ATGTTTCC: 0.0529
CGACCAGA: -0.145
AAAGGTTA: 0.168
CGCCCCCA: -0.177
TCGATCCA: -0.0718
CAACCTTA: 0.0869
AGGTTGGC: -0.0981
ACACTGTG: -0.0996
CTTAAAAG: 0.106
CTTGATAC: 0.132
AGGTAACT: 0.0006
ATCTCGGA: -0.149
ACGCTGTC: -0.242
ATTCCTAG: 0.0908
CAGAGCTA: -0.125
CGAAACAG: -0.146
AAGATACA: 0.264
CGATTCAC: -0.00385
CTTAAACA: 0.0461
CCACTGTA: 0.1

For quick reference, copied from above (series 1):
TAGCGCGA: 0.33
ACCGCCAC: 0.2
AATAATTC: 0.0522
GTGTCCCA: 0.034
